# Experimental data gathered from unrelated publications.
# Every numbered part comes from another study and shows a few of its results, in no order.

# Series 1
# Target: Cyclic AMP-dependent transcription factor ATF-1, full length (ATF1, Homo sapiens, UniProt P18846, residues 1-271)
# Method: protein-binding microarray
# Molecule type: hairpin DNA
# Matrix: in vitro
# Concentration: not given
# Setting: whole hairpin DNA, median over replicate spots
# Reference: not given
# Reading: higher = stronger binding
# Shared flanks, not repeated: GAGGCCG … CGGCCTCACACTC
# Construct (chain): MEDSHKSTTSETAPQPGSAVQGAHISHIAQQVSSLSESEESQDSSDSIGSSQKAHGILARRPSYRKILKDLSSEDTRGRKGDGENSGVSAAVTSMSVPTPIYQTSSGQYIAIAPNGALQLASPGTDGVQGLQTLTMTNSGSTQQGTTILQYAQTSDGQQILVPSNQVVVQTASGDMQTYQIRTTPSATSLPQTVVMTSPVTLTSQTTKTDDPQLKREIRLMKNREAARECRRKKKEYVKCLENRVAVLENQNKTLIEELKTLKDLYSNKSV
Oligonucleotide,median fluorescence [a.u.]
ACGACGCGGTGCCTCCTGGCACCGCGTCGT (5mC at 9 14 29 35),5670
GCTCGCGTCAGCCTCCTGGCTGACGCGAGC,4170
ACGACGCGGTGCCTCCTGGCACCGCGTCGT (5mC at 9 29 35),4290
GCTGACGTGAGCCTCCTGGCTCACGTCAGC (5mC at 29),5510
ACGCGGTCGTGCCTCCTGGCACGACCGCGT (5mC at 9 15 29 33 35),3400
GACGACGTCAGCCTCCTGGCTGACGTCGTC (5mC at 10),9150

# Series 2
# Target: RING finger protein unkempt homolog, zinc fingers 1-6, GST-SBP tag (UNK, Homo sapiens, UniProt Q9C0B0, residues 30-357)
# Method: RNA Bind-n-Seq
# Molecule type: RNA
# Matrix: in vitro
# Concentration: not given
# Setting: RNA with constant flanks, ends assumed
# Reference: input RNA pool
# Reading: higher = stronger binding
# Target sequence (chain): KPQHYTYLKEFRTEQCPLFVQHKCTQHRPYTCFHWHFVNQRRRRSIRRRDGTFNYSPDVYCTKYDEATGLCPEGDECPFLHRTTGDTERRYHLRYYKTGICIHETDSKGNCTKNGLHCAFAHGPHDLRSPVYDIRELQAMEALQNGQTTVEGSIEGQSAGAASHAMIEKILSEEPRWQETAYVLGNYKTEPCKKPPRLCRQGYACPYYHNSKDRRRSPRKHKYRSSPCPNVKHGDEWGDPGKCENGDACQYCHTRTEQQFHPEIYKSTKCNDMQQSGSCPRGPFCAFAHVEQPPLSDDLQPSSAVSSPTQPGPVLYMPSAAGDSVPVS
Oligonucleotide,bound/input enrichment [ratio]
GGGAGUUCUACAGUCCGACGAUCGAAGCAGAUAAGUGGAGCACGUUGAGCGCCGAUAUUGAGGAGACAUUUAAGACUCAGGACACCGCUGUGAUUUCUGCCAAGCUAACAGGUAUGCAGAACAGCUUAAUGAUGCUUGUUGAUCAACAGAGGAUUGAGCAUCA,0.0865
GGGAGUUCUACAGUCCGACGAUCGCUAUCUAUGUCCAAGCACUGAUUUUUCGCCUGGAAGGAAAUAUCCAAGAAUCCCCCGAACUCUUUCAGACAUGUGCUGUUCUCAGCCCACAGUGUGCUGAUAAUCUCAAGCAGGUGGCCCAACAGAGGAUUGAGCAUCA,0.159
GGGAGUUCUACAGUCCGACGAUCUUAUCAAGGAAACAGAAAGAAGAAUUAUGGCAAAGGCUGAAGAAUUUAUUGACAGAUGUGUUGUCCGAAAGCCCAGUGGAUGGGUGGCAGGUAGUGGAAGCCCAGGGUGAAGACAAUAUGCAACAGAGGAUUGAGCAUCA,0.526

# Series 3
# Target: Transcription factor SOX-2, HMG box (Sox2, Mus musculus, UniProt P48432, residues 41-119)
# UniProt P48432, sequence (41-119, looked up): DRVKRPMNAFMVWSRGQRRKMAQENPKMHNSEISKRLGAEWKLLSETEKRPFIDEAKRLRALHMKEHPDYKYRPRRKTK
# Method: Spec-seq
# Molecule type: double-stranded DNA, one strand shown
# Matrix: in vitro
# Concentration: not given
# Setting: whole probe, mean of replicates
# Reference: not given
# Reading: lower = stronger binding
# Shared flanks, not repeated: GAGTCGTCTCGTCAGCAC … CCGTAGAGCACTCAGGTC
Oligonucleotide,relative binding energy [ln ratio]
TTAGGTT,0.629
CATAACG,-0.147
CATCTAG,0.39
CATTTTC,-0.233
AGGTGTT,0.673

# Further values, each from its own experiment
Molecule,target,assay,test system,setting,how to read,quantity,value
"PhoQ, residues 284 288 289 292 302 303 SSCLAV","PhoP, residues 12 14 15 18 19 LYFRQ (Escherichia coli, UniProt P23836)","Sort-seq, item: YFP reporter",E. coli,"PhoQ-PhoP variant library, added: 10 µM Mg2+","reference: high Mg2+ state, higher = stronger signaling",fold induction,6.77

# Some of these lines once more (series 3):
Oligonucleotide,relative binding energy [ln ratio]
CATCTAG,0.39
TTAGGTT,0.629
